# Assay results from different studies.
# TDP1: Tyrosyl-DNA phosphodiesterase 1 (TDP1, Homo sapiens, UniProt Q9NUW8)
# Sequence of UniProt Q9NUW8 (whole entry, looked up): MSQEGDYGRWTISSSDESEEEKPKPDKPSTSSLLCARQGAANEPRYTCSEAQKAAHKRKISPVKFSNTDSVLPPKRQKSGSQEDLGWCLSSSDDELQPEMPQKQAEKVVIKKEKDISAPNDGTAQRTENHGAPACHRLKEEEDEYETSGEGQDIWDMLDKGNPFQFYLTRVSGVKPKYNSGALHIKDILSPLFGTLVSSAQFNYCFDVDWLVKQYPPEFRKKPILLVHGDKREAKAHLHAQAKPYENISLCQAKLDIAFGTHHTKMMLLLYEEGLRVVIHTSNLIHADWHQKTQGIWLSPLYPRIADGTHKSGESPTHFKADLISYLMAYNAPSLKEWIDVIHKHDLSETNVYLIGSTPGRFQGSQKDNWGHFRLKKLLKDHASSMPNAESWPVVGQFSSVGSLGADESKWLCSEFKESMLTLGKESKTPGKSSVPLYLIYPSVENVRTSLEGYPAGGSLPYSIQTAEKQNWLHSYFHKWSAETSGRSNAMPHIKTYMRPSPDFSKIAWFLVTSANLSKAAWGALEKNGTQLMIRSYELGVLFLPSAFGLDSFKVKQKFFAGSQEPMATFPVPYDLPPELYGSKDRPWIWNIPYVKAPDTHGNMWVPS
SMILES,target or system,test,test system,setting,endpoint,result
COc1ccccc1/C=C/CNCC(O)COc1ccc(Nc2ccccc2)cc1 (racemic),,,"mouse, plasma","oral, 10 mg/kg",Tmax,19.8 min
COc1cnc2cccc(N3CCc4c(cc(Cn5ccnc5)cc4-c4cn(C)nc4C(F)(F)F)C3=O)c2c1,,,"male CD-1 mouse, plasma","intraperitoneal, 50 mg/kg",Tmax,30 min
O=S(=O)(N[C@H]1CCO[C@@H](C2c3ccccc3CCc3ccccc32)C1)c1ccc(OC(F)(F)F)cc1,,,"mouse, plasma","oral, 30 mg/kg",Tmax,120 min
COc1ccc(C(=O)c2c(C(=O)NCCCN(C)C)oc3ccc(Cl)cc3c2=O)cc1OC,,,"male C57BL/6 mouse, liver","oral, 5 mg/kg",Tmax,60 min
Nc1ccc(-c2cc(Cl)c(Cl)c3[nH]c4c(c23)CN(C(=O)CO)CC4)cn1,,,"C57BL/6 mouse, blood","intravenous, 0.5 mg/kg",Tmax,5 min
CCC1C(COc2nccc3cc(C(N)=O)c(OC)cc23)NC(=O)C1F (centres unmarked),,,"CD-1 mouse, plasma","oral, 10 mg/kg",Tmax,2.94 min
CC[C@H](C)/C=C/C=C/C=C/C(O)=C/C(=O)C(Cl)(Cl)Cl,,,"female C57BL/6 mouse, plasma","oral, 25 mg/kg",Tmax,15 min
OCC1OC(n2cnc3c(NCc4ccc(Br)s4)ncnc32)C(O)C1O (centres unmarked),,,"male CD-1 mouse, blood","oral, 10 mg/kg",Tmax,96 min
O=C(O)c1ccc(/C=C2\SC(=S)N(Cc3cccc(C(F)(F)F)c3)C2=O)cc1,,,"C57BL/6 mouse, blood","intravenous, 5 mg/kg",Tmax,4.8 min
O=C(OC(C(F)(F)F)C(F)(F)F)N1CCC(CNS(=O)(=O)c2ccc(Cl)cc2)CC1,,,"male SCID mouse, plasma","oral, 10 mg/kg",Tmax,240 min
O=C(c1ccccc1)N1C(c2ccc(OCC3CCN(CCCF)C3)cc2)c2ccc(O)cc2CC12CC2 (centres unmarked),,,"C57BL/6 mouse, plasma","oral, 25 mg/kg",Tmax,60 min
CC[C@H](C)/C=C/C=C/C=C/C(O)=C/C(=O)C(F)(F)F,,,"female C57BL/6 mouse, plasma","oral, 25 mg/kg",Tmax,30 min
Cc1sc2ccc(C=NOCc3ccc(-c4nc5cc(-c6ccccc6)ccn5c4Nc4ccc(C(=O)O)cc4)cc3)cc2[n+]1C.[I-] (mixture of isomers),TDP1,"enzyme activity, inhibitor",,"100 µM, unpurified compound",inhibition,101%
Cn1c2cc([S+](C)[O-])sc2c2cnn(Cc3cccc(N)c3)c(=O)c21 (centres unmarked),,,"male BALB/c mouse, plasma","intraperitoneal, 10 mg/kg, single dose",Tmax,30 min
O=C(Nc1ccc(C(F)F)cc1)[C@H](CC1CCCCC1)Nc1nn2c(=O)ccnc2s1,,,"female nude mouse, plasma","oral, 10 mg/kg",Tmax,30 min
O=C1CCC(N2C(=O)c3ccc(N4CCC(C(=O)N5CCC(CCN6CCC(CNC(=O)c7cccc(-c8noc(C(F)(F)F)n8)c7)(c7nc(-c8ccccc8)cs7)CC6)CC5)CC4)cc3C2=O)C(=O)N1 (centres unmarked),,,"CD-1 mouse, plasma","intraperitoneal, 30 mg/kg",Tmax,15 min
Fc1cccc(-n2cc(-c3ccccc3)nc2NCc2ccc(C(F)(F)F)c(F)c2)c1,,,"male CD-1 mouse, intestine","intraperitoneal, 25 mg/kg, single dose",Tmax,30 min
COc1cc(N2CCCC2)ccc1C=NOCc1ccc(-c2nc3cc(-c4ccccc4)ccn3c2Nc2ccc(C(=O)O)cc2)cc1,TDP1,"enzyme activity, inhibitor",,100 µM,inhibition,87.2%
O=C(NCCCCc1ccccc1)n1c(=O)oc2cc(-c3ccc(F)cc3)ccc21,,,"CD-1 mouse, plasma","intravenous, 1 mg/kg",Tmax,5 min
COc1ccc2nc(NC(c3ccc(O)cc3)P(=O)(OC)OC)sc2c1 (centres unmarked),,,"mouse, plasma","intravenous, 10 mg/kg",Tmax,1.8 min
Cc1cc(NC(=O)[C@H](O)c2cc(F)cc(F)c2)ccc1-c1cnc(N)c(C(=O)NC(C)C)c1,,,"female nude mouse, plasma","oral, 50 mg/kg, single dose",Tmax,60 min
CCn1cc(-c2cc(Cn3ccnc3)cc3c2CCN([C@H](c2cc(OC)ccn2)C2CC2)C3=O)c(C(F)(F)F)n1,,,"male CD-1 mouse, plasma","oral, 10 mg/kg",Tmax,18 min
Cn1ccc(-c2cc(Cl)c(Cl)c3[nH]c4c(c23)CN(C(=O)CO)CC4)n1,,,"C57BL/6 mouse, blood","oral, 100 mg/kg",Tmax,140 min
Fc1cccc(-n2cc(-c3ccccc3)nc2NCc2ccc(C(F)(F)F)c(Br)c2)c1,,,"male CD-1 mouse, plasma","intraperitoneal, 25 mg/kg, single dose",Tmax,60 min
N#CCCC1CCN(C(=S)c2ccc(-c3cc(Cl)ccc3Cl)o2)CC1,,,"male BALB/c mouse, plasma","oral, 10 mg/kg",Tmax,30 min
COC1C(c2ccc(Cl)c(Cc3ccc(OC4CCOC4)cc3)c2)OC(CO)C(O)C1O (centres unmarked),,,"CD-1 mouse, plasma","intravenous, 5 mg/kg",Tmax,4.8 min

# A few entries again:
SMILES,target or system,test,test system,setting,endpoint,result
COc1ccc2nc(NC(c3ccc(O)cc3)P(=O)(OC)OC)sc2c1 (centres unmarked),,,"mouse, plasma","intravenous, 10 mg/kg",Tmax,1.8 min
Cc1cc(NC(=O)[C@H](O)c2cc(F)cc(F)c2)ccc1-c1cnc(N)c(C(=O)NC(C)C)c1,,,"female nude mouse, plasma","oral, 50 mg/kg, single dose",Tmax,60 min
O=C(c1ccccc1)N1C(c2ccc(OCC3CCN(CCCF)C3)cc2)c2ccc(O)cc2CC12CC2 (centres unmarked),,,"C57BL/6 mouse, plasma","oral, 25 mg/kg",Tmax,60 min
CCC1C(COc2nccc3cc(C(N)=O)c(OC)cc23)NC(=O)C1F (centres unmarked),,,"CD-1 mouse, plasma","oral, 10 mg/kg",Tmax,2.94 min
